Published values from different studies.
Compare with care: the assays were run in different laboratories. “And” joins repeats or separate records; there may be more than shown. Numbers after ± are the reported error.
FGFR4: Fibroblast growth factor receptor 4 (FGFR4, Homo sapiens, UniProt P22455)
Chain of UniProt P22455 (whole entry, looked up): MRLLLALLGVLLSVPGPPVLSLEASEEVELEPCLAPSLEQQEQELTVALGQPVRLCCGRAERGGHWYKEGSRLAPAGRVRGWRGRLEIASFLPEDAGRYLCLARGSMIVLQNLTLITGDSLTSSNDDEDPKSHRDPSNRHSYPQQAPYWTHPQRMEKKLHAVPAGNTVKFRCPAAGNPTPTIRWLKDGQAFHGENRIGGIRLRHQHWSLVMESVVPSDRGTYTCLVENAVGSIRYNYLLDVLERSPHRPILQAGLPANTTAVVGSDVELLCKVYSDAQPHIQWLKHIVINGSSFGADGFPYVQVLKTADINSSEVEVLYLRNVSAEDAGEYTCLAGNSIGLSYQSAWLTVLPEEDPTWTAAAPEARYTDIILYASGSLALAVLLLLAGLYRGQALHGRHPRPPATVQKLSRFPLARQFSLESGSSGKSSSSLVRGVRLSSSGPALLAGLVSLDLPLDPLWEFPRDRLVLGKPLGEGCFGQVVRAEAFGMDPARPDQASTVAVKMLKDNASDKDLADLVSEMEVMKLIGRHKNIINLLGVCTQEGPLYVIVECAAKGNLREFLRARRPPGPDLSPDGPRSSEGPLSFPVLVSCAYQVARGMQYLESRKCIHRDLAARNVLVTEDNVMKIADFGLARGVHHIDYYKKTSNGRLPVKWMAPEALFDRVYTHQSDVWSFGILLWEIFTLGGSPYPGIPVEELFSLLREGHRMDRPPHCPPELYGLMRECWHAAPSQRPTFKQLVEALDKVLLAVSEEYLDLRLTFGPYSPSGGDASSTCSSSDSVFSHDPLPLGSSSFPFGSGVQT
Astl: Astacin-like metalloendopeptidase (Astl, Mus musculus, UniProt Q6HA09)
Chain of UniProt Q6HA09 (whole entry, looked up): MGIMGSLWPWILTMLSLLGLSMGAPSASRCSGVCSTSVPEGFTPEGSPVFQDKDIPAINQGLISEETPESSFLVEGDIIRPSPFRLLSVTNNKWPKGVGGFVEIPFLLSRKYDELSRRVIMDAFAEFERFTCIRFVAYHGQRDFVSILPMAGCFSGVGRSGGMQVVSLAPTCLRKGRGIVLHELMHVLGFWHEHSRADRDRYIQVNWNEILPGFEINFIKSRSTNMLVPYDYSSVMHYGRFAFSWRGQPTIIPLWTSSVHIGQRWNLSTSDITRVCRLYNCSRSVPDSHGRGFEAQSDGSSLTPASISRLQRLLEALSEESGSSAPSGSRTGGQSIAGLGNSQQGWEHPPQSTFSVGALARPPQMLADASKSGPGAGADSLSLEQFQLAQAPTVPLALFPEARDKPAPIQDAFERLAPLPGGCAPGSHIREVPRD
rhlR: HTH-type quorum-sensing regulator RhlR (rhlR, Pseudomonas aeruginosa, UniProt P54292)
Chain of UniProt P54292 (whole entry, looked up): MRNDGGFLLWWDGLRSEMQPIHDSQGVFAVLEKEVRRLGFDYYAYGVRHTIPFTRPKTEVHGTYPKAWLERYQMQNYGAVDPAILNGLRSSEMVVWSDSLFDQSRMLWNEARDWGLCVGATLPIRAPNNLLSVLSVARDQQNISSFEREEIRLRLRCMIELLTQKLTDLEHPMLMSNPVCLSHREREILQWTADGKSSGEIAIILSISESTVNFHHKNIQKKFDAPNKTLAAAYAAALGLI
HDAC6 ZnF-UBD domain: Protein deacetylase HDAC6, ZnF-UBD domain (HDAC6, Homo sapiens, UniProt Q9UBN7)
Chain of UniProt Q9UBN7 (whole entry, looked up): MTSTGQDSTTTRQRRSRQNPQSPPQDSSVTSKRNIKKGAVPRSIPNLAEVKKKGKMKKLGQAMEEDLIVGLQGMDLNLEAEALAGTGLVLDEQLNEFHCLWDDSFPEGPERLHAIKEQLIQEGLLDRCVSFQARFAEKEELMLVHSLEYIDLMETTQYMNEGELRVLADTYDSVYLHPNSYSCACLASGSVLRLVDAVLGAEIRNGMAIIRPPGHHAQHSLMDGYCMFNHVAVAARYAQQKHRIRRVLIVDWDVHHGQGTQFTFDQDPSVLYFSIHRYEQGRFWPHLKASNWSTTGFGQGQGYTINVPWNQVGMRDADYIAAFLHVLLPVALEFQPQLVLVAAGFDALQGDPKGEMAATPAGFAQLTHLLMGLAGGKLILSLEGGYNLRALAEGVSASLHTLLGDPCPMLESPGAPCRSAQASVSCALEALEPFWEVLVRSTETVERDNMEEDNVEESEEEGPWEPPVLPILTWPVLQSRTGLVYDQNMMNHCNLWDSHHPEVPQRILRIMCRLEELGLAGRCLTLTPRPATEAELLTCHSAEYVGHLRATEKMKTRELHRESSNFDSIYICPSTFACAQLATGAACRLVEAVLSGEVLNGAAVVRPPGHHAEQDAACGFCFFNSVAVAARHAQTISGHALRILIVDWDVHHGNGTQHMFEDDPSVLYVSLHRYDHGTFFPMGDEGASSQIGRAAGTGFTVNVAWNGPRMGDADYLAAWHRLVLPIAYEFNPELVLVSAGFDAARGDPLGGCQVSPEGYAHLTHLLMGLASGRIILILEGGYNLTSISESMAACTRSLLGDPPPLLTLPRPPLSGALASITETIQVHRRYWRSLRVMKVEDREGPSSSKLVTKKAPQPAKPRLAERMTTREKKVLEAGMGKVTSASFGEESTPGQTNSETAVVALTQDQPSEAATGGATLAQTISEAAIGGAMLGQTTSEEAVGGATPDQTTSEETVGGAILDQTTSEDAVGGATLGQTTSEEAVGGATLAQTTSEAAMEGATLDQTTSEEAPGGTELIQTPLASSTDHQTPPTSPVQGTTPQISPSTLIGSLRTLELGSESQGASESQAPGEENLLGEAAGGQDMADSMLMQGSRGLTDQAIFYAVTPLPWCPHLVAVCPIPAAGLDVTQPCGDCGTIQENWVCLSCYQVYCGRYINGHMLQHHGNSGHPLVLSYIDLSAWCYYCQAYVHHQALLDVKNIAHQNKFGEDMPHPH
DCLK1: Serine/threonine-protein kinase DCLK1 (DCLK1, Homo sapiens, UniProt O15075)
Chain of UniProt P51575 (whole entry, unmodified, looked up): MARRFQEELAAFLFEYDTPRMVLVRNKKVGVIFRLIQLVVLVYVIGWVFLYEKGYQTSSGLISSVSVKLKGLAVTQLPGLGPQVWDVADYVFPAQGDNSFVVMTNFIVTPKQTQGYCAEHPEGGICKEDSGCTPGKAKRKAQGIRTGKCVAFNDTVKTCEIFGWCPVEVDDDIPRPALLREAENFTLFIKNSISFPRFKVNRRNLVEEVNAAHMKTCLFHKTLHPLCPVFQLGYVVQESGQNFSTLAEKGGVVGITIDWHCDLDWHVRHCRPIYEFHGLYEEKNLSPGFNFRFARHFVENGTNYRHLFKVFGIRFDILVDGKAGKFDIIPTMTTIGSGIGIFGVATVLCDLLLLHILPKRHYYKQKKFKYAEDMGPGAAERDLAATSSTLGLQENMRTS
Chain of UniProt O15075 (whole entry, looked up): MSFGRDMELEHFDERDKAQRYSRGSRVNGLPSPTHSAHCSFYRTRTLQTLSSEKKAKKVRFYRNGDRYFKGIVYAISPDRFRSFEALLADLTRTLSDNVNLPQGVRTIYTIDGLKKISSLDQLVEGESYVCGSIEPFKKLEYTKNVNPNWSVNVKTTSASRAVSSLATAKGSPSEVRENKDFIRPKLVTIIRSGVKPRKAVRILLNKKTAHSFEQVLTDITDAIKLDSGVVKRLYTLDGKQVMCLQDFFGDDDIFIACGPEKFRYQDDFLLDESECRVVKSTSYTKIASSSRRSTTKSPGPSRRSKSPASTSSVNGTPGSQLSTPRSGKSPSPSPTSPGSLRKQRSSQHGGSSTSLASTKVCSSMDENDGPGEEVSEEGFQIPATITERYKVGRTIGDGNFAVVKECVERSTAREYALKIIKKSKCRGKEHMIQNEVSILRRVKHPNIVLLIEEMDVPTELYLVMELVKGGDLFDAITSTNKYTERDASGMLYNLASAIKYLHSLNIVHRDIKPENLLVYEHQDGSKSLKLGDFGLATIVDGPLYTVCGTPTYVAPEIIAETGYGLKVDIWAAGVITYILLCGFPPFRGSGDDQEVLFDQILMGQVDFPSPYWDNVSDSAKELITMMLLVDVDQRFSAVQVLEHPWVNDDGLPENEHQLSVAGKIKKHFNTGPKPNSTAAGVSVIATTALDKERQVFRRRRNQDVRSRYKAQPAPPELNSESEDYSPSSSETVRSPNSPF
Chain of UniProt P45983 (whole entry, looked up): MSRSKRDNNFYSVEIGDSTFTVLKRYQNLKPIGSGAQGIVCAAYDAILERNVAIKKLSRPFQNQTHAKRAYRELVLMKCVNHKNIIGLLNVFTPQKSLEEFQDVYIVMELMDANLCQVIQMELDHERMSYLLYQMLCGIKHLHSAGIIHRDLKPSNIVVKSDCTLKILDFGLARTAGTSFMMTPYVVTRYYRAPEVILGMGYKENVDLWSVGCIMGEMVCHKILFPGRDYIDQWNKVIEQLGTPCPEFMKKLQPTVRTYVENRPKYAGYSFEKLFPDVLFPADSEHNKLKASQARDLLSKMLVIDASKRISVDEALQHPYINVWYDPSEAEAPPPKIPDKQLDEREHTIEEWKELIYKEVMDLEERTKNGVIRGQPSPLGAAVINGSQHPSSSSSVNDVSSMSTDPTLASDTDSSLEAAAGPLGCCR
Chain of UniProt O14965 (whole entry, looked up): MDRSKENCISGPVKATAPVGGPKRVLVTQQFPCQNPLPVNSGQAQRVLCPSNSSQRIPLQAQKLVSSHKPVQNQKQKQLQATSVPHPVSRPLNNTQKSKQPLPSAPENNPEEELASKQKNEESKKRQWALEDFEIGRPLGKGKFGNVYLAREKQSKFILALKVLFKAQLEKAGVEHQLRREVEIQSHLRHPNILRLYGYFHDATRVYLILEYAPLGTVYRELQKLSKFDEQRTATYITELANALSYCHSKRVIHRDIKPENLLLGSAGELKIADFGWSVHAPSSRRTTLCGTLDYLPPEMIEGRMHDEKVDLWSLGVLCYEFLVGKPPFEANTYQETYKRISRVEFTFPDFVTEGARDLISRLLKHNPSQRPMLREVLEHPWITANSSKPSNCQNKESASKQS
Chain of UniProt Q96PN8 (whole entry, looked up): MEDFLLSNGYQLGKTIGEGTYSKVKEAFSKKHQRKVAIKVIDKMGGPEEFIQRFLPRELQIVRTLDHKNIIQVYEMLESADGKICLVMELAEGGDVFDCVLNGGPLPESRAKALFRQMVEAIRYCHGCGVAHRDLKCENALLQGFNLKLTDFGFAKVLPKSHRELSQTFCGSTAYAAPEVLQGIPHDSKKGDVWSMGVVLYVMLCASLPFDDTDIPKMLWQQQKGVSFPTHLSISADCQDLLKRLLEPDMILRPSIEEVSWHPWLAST

The remaining activity of `COc1cc(F)ccc1-c1ncnc(Nc2cccc(C[S@](C)(=N)=O)c2)n1` is reported as 98% (FGFR4; kinase activity; 10 µM, together with: 10 µM ATP).
`O=C(CCN(Cc1ccc2c(c1)OCO2)Cc1ccc(Cl)c(O)c1F)NO` has a remaining activity of 80 ± 6% (Astl; enzyme activity, inhibitor, fluorogenic; 0.25 µM).
`N[C@H]1[C@H](O[C@H]2[C@H](O)[C@@H](N)[C@H](O[C@H]3[C@H](O)[C@@H](N)[C@H](O[C@H]4[C@H](O)[C@@H](N)C(O)O[C@@H]4CO)O[C@@H]3CO)O[C@@H]2CO)O[C@H](CO)[C@@H](O)[C@@H]1O` (stereo partly shown) — result for “competition of LCO binding”: 0% and 3.4% (radioligand binding, competition binding; membrane fractions; 2 µM, together with: radiolabelled LCO-V(C18:1,NMe)).
`COc1cc(C#C[C@@H](O)CC(C)C)ccc1O` has a remaining activity of 74% (rhlR; reporter gene, inhibitor, quorum sensing reporter strain; 10 µM, 1.5 h; reference: DMSO).
`CC(C)C[C@H](NC(=O)C[C@H](O)[C@H](CC(C)C)NC(=O)[C@H](Cc1c[nH]cn1)NC(=O)CNC(=O)[C@@H](NC(=O)[C@H](C)NC(=O)[C@H](Cc1c[nH]c2ccccc12)NC(=O)[C@H](CCC(N)=O)NC(=O)[C@@H](Cc1ccccc1)NC(=O)COCCOCCNC(=O)CCC(C(=O)O)N1CCN(CC(=O)O)CCN(CC(=O)O)CCN(CC(=O)O)CC1)C(C)C)C(N)=O` (stereo partly shown) [lutetium-177 labelled] has a tissue uptake of 0.2 ± 0.1 %ID/g (BALB/c nu/nu mice, female, bone; 50 pmol, 1 h, together with: PBS co-injection).
`COc1cc(-c2[nH]nnc2C(=O)c2ccccc2)ccc1O` gave a remaining activity of 75% (rhlR; reporter gene, inhibitor, quorum sensing reporter strain; 10 µM, 1.5 h; reference: DMSO).
`O=C(O)Cc1nc2ccccc2o1` has a Kd of over 1000 µM (HDAC6 ZnF-UBD domain).
With `CC(C)Oc1cc(N2CCN(C)CC2)ccc1Nc1nc(N)n(C(=O)NCc2ccccc2S(=O)(=O)C(C)C)n1` the remaining activity was 1.8% (DCLK1; enzyme activity; 10 µM; reference: control).
The remaining activity of `COc1ccc(F)cc1C(=O)NCc1ccc(-c2nn([C@@H](C)C(F)(F)F)c(N)c2C(N)=O)cc1` is reported as 79.7 ± 1.3% (Mitogen-activated protein kinase kinase kinase kinase 1 (MAP4K1, Homo sapiens, UniProt Q92918); kinase activity, inhibitor, HotSpot radiometric; 100 nM, together with: ATP 10 µM).
With `COc1cccc(C(=O)C#Cc2ccc(F)c(F)c2)c1` the remaining activity was 55% (rhlR; reporter gene, inhibitor, quorum sensing reporter strain; 10 µM, 1.5 h; reference: DMSO).
For `N[C@H]1[C@H](O[C@H]2[C@H](O)[C@@H](N)[C@H](O[C@H]3[C@H](O)[C@@H](N)[C@H](O[C@H]4[C@H](O)[C@@H](N)[C@H](O[C@H]5[C@H](O)[C@@H](N)C(O)O[C@@H]5CO)O[C@@H]4CO)O[C@@H]3CO)O[C@@H]2CO)O[C@H](CO)[C@@H](O)[C@@H]1O` (stereo partly shown), “competition of LCO binding” read 11% and 12% and 10% (radioligand binding, competition binding; membrane fractions; 2 µM, together with: radiolabelled LCO-V(C18:1,NMe)).
The remaining activity of `CN(C)CC#Cc1ccc2[nH]c3c(c2c1)-c1nc(N)ncc1CCC3` is reported as 79% (Testis-specific serine/threonine-protein kinase 3 (TSSK3, Homo sapiens, UniProt Q96PN8); kinase activity, inhibitor, radiometric; 1 µM, together with: ATP at Km).
With `CC[C@@H]1[C@H](F)C(=O)N[C@@H]1COc1nccc2cc(C(N)=O)c(OC)cc12` the inhibition was 2.6% (Ribosomal protein S6 kinase alpha-2 (RPS6KA2, Homo sapiens, UniProt Q15349); ATP-site probe binding, ActivX profiling, item: RSK3; THP-1 cell lysate; 0.2 mM, Lys2 site).
For `O=C(O)c1ccc(Nc2ncc3c(n2)-c2ccc(Cl)cc2C(c2c(F)cccc2F)=NC3)cc1`, the remaining activity was 76% (Rsk2(h); kinase activity; 1 µM).
With `Cc1cc(NC(=O)c2cccc(NC(=O)/C=C/CN(C)C)c2)ccc1Nc1nccc(-c2cccnc2)n1` the remaining activity was 0.246 (Mitogen-activated protein kinase 8 (MAPK8, Homo sapiens, UniProt P45983); enzyme activity, inhibitor; 0.1829 µM, 0 h, unit not given, together with: GSH 10 mM pre-incubation; reference: vehicle).
The remaining activity of `O=C(CCN(Cc1ccc(Cl)cc1F)Cc1ccc(Cl)c(O)c1F)NO` is reported as 7 ± 1% (Astl; enzyme activity, inhibitor, fluorogenic; 5 µM).
`O=C(NC1CCC1)c1ccc2nc(-c3cccc(NS(=O)(=O)NCCN4CCCCC4)c3)cn2c1` has a remaining activity of 88% (5'-AMP-activated protein kinase catalytic subunit alpha-2 (PRKAA2, Homo sapiens, UniProt P54646); enzyme activity; 10 µM).
`O=C(COP(=O)(O)O)[C@@H](O)[C@H](O)[C@H](O)COP(=O)(O)O` — result for “thermal stability ratio”: 0.705 (Large ribosomal subunit protein uL13 (Homo sapiens, UniProt P40429); thermal proteome profiling, item: RPL13A; HepG2 cell lysate; concentration not given, 57 over 37 °C, mean; reference: compound over control).
`Oc1ccccc1-c1n[nH]cc1-c1ccnc2ccccc12`: “log2 fold change” -0.16 (PTK2 (Candida albicans); kinase binding, MIB/MS competition; Candida albicans lysate; 1 µM; reference: DMSO).
The remaining activity of `CNc1ncc2c(/C=C/C(=O)N3CCC(OC)CC3)nn(Cc3cccc(C(F)(F)F)c3)c2n1` is reported as 100% (Serine/threonine-protein kinase 3 (STK3, Homo sapiens, UniProt Q13188); kinase activity, inhibitor; 1 µM; reference: untreated control).
With `O=C(C#Cc1ccc(F)c(F)c1)c1cccc(Cl)c1` the remaining activity was 72% (rhlR; reporter gene, inhibitor, quorum sensing reporter strain; 10 µM, 1.5 h; reference: DMSO).
`OC(CCN1CCCCC1)(c1ccccc1)C1CC2C=CC1C2` (stereo not shown) — result for “change in EEG Alpha2-power Fz-Cz”: 34.4% (resting-state EEG; healthy elderly humans; oral, 2 mg, eyes open, LS mean; reference: baseline).
For `O=C(C#Cc1ccc(F)c(F)c1)c1ccc(Cl)cc1`, the remaining activity was 100% (rhlR; reporter gene, inhibitor, quorum sensing reporter strain; 10 µM, 1.5 h; reference: DMSO).
With `COc1cc(-c2cncc3c2CN(C)Cc2cc(N4CCNCC4)ccc2-3)cc(OC)c1OC` the remaining activity was 119% (Proto-oncogene tyrosine-protein kinase ROS (ROS1, Homo sapiens, UniProt P08922); kinase activity; 1 µM, human enzyme, together with: ATP 10 µM; reference: DMSO control).
For `c1coc(-c2n[nH]cc2-c2ccnc3ccccc23)c1`, “log2 fold change” read -0.08 (DUN1 (Candida albicans); kinase binding, MIB/MS competition; Candida albicans lysate; 10 µM; reference: DMSO).
`COc1cc(C#CC(=O)c2cccc(Cl)c2)ccc1O` gave a remaining activity of 63% (rhlR; reporter gene, inhibitor, quorum sensing reporter strain; 10 µM, 1.5 h; reference: DMSO).
Under “log2 fold change”, `Cn1cc(-c2ccc(-c3cncc(Cl)c3N3CCC4(CCNC4=O)CC3)cc2)cn1` is recorded as 3.98 (COLO 205; gene expression, microarray, item: TLE1 mRNA; concentration not given, 2 h; reference: untreated cells).
The remaining activity of `COc1cc(Nc2ncc3c(n2)-c2ccc(Cl)cc2C(c2c(F)cccc2OC)=NC3)ccc1C(=O)O` is reported as 96% (TAOK2; kinase activity; 1 µM).
`O=C(CCN(Cc1ccncc1)Cc1ccc(Cl)c(O)c1F)NO` has a remaining activity of 31 ± 2% (Astl; enzyme activity, inhibitor, fluorogenic; 5 µM).
The specific binding of `Nc1ncnc2c1ncn2[C@@H]1O[C@H](COP(=O)(O)CP(=O)(O)OP(=O)(O)O)[C@@H](O)[C@H]1O` is reported as 1.5 CCPM and 8 CCPM and -12 CCPM (P2X purinoceptor 1 (P2RX1, Homo sapiens, UniProt P51575, D170A); saturation binding; HEK293; 1 nM).
With `CC(C)OCCn1c(=S)[nH]c(=O)c2[nH]ccc21` the remaining activity was 8.66% (Myeloperoxidase (MPO, Homo sapiens, UniProt P05164); LDL lipid peroxidation, inhibitor, cholesteryl ester hydroperoxide; 10 µM).
With `COc1cc(C#CC(=O)c2ccc(C)cc2)ccc1O` the remaining activity was 62% (rhlR; reporter gene, inhibitor, quorum sensing reporter strain; 10 µM, 1.5 h; reference: DMSO).
The Kd of `COc1ccc(C=C2SC(=O)N(C(C)C(=O)O)C2=O)cc1` (stereo not shown) is reported as over 1000 µM (HDAC6 ZnF-UBD domain).
`CC#CC(=O)N1CCC[C@H]1c1nc(-c2ccc(C(=O)Nc3ccccn3)cc2)c2c(N)nccn12` gave a remaining activity of 98.3 ± 2.7% (Aurora kinase A (AURKA, Homo sapiens, UniProt O14965); kinase activity, inhibitor, HotSpot radiometric; 100 nM, together with: ATP 10 µM).
`C=CC(=O)N1CCC[C@@H](n2nc(-c3ccc(Oc4ccccc4)cc3)c3c(N)ncnc32)C1` gave a remaining activity of 81.5% (FGFR4; 0.1 µM).
With `COc1cc(C#CC(=O)c2ccc(C(F)(F)F)cc2)ccc1O` the remaining activity was 67% (rhlR; reporter gene, inhibitor, quorum sensing reporter strain; 10 µM, 1.5 h; reference: DMSO).
The remaining activity of `COc1cc(N2CCN(C)CC2)ccc1Nc1nc(N)n(C(=S)NCc2c(Cl)cccc2Cl)n1` is reported as 0.1% (DCLK1; enzyme activity; 10 µM; reference: control).

For quick reference, copied from above:
`CC#CC(=O)N1CCC[C@H]1c1nc(-c2ccc(C(=O)Nc3ccccn3)cc2)c2c(N)nccn12` gave a remaining activity of 98.3 ± 2.7% (Aurora kinase A (AURKA, Homo sapiens, UniProt O14965); kinase activity, inhibitor, HotSpot radiometric; 100 nM, together with: ATP 10 µM).
`C=CC(=O)N1CCC[C@@H](n2nc(-c3ccc(Oc4ccccc4)cc3)c3c(N)ncnc32)C1` gave a remaining activity of 81.5% (FGFR4; 0.1 µM).
